# Measurements gathered from unrelated publications.
# Parts stem from different laboratories: compare values within a part only. “And” joins repeats or separate records; there may be more than shown.
# Sequence of UniProt Q99558 (whole entry, looked up): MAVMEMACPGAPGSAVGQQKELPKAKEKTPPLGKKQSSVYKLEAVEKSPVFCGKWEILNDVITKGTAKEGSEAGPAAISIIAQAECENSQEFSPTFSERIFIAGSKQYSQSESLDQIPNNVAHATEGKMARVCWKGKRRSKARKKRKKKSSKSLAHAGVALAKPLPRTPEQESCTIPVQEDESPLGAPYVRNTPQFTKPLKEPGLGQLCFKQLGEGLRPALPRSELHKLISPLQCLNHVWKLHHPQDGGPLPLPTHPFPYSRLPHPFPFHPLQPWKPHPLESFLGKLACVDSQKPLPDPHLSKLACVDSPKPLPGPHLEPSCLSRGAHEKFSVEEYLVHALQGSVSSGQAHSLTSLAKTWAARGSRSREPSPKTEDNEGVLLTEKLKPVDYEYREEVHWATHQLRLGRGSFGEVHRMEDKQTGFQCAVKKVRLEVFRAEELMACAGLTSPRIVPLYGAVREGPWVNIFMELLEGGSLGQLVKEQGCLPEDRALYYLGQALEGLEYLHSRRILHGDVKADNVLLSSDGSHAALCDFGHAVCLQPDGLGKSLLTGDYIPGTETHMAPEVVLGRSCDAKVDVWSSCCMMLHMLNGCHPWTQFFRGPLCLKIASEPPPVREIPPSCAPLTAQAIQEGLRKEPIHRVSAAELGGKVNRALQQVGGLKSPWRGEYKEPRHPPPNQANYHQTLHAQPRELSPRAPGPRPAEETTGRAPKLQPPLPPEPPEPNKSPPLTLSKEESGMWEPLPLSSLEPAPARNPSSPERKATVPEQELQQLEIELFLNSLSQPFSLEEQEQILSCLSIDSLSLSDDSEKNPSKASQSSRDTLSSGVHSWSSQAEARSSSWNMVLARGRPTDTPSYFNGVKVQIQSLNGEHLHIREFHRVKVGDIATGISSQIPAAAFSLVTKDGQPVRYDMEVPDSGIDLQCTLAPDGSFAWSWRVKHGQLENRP
# Sequence of UniProt P51957 (whole entry, looked up): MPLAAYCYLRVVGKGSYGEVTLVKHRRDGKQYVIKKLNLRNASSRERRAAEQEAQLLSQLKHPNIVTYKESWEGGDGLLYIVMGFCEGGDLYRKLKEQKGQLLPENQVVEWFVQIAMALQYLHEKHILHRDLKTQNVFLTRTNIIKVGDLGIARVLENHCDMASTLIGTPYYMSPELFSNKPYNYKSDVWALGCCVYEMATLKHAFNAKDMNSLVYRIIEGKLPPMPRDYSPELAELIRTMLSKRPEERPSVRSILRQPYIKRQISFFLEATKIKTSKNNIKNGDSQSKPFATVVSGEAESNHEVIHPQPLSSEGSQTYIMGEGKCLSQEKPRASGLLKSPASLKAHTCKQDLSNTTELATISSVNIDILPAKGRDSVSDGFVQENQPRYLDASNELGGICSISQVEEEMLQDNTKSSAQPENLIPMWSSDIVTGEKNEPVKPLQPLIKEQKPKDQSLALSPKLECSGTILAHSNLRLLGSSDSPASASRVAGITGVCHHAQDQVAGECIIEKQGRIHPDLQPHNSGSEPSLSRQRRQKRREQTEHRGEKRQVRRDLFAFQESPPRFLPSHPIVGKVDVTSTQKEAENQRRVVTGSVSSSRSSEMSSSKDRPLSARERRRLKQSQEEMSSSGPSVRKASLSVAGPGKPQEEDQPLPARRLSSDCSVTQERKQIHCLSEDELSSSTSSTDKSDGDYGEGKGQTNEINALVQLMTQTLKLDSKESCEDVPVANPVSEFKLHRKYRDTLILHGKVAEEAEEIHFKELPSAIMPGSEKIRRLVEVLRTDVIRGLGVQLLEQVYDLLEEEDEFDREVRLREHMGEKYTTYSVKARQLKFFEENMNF
# Sequence of UniProt Q9P289 (whole entry, looked up): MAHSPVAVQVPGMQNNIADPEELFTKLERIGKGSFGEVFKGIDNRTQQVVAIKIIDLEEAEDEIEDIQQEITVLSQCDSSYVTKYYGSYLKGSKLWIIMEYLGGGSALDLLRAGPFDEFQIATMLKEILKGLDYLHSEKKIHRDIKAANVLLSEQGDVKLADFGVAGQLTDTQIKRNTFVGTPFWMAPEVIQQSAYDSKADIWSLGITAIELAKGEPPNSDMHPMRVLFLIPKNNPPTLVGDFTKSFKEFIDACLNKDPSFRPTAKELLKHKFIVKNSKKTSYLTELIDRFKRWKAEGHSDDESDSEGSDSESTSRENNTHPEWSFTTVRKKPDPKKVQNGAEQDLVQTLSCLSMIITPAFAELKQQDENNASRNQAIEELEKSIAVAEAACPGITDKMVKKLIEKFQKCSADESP
# Sequence of UniProt O15264 (whole entry, looked up): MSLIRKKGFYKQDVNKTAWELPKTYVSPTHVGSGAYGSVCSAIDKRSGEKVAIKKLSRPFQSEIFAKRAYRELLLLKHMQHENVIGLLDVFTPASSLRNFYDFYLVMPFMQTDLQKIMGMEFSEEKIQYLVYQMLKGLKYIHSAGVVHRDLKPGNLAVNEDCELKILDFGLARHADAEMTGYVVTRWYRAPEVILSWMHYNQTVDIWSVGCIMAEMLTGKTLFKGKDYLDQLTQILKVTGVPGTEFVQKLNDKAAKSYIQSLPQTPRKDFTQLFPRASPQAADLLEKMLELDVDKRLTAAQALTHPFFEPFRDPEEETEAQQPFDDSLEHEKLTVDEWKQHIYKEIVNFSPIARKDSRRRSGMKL
# Sequence of UniProt P54756 (whole entry, looked up): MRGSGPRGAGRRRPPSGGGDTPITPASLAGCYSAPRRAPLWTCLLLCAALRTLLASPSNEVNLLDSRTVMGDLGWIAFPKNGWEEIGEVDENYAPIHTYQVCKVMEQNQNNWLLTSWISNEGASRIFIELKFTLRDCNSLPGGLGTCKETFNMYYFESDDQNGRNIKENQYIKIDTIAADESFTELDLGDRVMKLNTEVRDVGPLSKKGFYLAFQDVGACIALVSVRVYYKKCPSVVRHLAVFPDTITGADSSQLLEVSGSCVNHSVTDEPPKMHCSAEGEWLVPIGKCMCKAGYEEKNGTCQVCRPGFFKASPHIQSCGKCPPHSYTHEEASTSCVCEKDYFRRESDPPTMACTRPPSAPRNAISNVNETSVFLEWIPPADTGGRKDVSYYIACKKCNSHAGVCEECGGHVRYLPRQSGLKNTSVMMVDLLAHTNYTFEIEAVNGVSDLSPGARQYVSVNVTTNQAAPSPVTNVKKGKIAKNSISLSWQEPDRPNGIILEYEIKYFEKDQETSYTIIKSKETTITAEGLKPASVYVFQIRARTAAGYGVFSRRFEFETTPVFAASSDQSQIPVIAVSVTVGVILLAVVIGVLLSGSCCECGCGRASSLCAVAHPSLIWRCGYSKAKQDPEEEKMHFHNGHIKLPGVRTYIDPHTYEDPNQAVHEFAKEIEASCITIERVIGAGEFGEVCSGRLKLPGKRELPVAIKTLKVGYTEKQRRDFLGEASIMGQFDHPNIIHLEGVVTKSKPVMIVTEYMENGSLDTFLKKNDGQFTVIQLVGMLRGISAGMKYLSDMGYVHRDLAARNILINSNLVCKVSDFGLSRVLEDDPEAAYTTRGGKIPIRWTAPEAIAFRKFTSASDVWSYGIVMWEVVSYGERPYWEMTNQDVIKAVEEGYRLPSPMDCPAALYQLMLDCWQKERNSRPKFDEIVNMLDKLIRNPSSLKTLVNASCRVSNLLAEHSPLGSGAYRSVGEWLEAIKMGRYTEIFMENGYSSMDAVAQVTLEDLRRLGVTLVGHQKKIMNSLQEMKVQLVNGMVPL
# Sequence of UniProt P48729 (whole entry, looked up): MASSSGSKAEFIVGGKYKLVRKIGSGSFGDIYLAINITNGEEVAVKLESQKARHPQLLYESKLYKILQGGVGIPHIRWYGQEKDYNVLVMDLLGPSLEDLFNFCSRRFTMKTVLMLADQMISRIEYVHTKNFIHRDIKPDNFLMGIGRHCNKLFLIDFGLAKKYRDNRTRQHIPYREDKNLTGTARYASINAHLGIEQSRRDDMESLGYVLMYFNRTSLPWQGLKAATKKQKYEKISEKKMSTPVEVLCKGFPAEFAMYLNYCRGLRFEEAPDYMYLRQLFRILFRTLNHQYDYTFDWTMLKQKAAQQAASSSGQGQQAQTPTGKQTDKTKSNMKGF
# Sequence of UniProt P11802 (whole entry, looked up): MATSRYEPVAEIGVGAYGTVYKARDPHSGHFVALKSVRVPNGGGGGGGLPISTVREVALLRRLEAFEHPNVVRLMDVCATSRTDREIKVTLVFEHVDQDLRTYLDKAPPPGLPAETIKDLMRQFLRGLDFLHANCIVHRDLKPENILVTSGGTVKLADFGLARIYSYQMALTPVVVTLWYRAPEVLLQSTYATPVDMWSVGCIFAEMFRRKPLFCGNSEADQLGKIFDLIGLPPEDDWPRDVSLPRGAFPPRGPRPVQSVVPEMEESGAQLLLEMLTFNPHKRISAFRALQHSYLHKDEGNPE

# Block 1
# Cell line: mouse MPNST tumor cells
# Technique: high-content immunofluorescence imaging
# Measured: nuclear SOX9
# Concentration: 10 µM
# Time: 12 h
# Setting: mean of 2 replicates
# Relative to: DMSO control
# Direction: higher = more nuclear SOX9
Structure (SMILES),nuclear SOX9 intensity
CN(C)CCc1c[nH]c2ccc(C[C@H]3COC(=O)N3)cc12,87.7 % of DMSO and 102 % of DMSO
O=C(NCc1ccc(C(F)(F)F)cc1)Nc1cccc2cnccc12,116 % of DMSO
CN(C)CC[C@@H](c1ccc(Cl)cc1)c1ccccn1,118 % of DMSO
CC[C@H]1OC(=O)[C@H](C)[C@@H](O[C@H]2C[C@@](C)(OC)[C@@H](O)[C@H](C)O2)[C@H](C)[C@@H](O[C@@H]2O[C@H](C)C[C@H](N(C)C)[C@H]2O)[C@](C)(O)C[C@@H](C)CN(C)[C@H](C)[C@@H](O)[C@]1(C)O,132 % of DMSO and 116 % of DMSO and 147 % of DMSO
CC(C)NC[C@H](O)COc1cccc2ccccc12,119 % of DMSO
Oc1c(F)cc(-c2cnccc2-c2ccc(N3CCOCC3)cc2)cc1F,92.3 % of DMSO
OCCn1cc(-c2ccc3c(c2)CC/C3=N\O)c(-c2ccncc2)n1,45.7 % of DMSO
NS(=O)(=O)c1cc2c(cc1Cl)NC(C(Cl)Cl)NS2(=O)=O (stereo not shown),96.1 % of DMSO
CC(C)c1cccc2c(-c3ccccc3)cc(-c3ccc(-c4ccc(C(=O)O)cc4)[nH]3)nc12,103 % of DMSO

# Block 2
# Cell line: Huh-7
# Concentration: 10 µM
# Time: 24 h
SMILES,viability
CN(C)CCCOc1nn(Cc2ccccc2)c2ccccc12,89.2%
CNC(=C[N+](=O)[O-])NCCSCc1csc(CN(C)C)n1,103%
CC(C)C(=O)Nc1ccc([N+](=O)[O-])c(C(F)(F)F)c1,99%
COc1ccc(OC)c(C(O)CNC(=O)CN)c1 (stereo not shown),89.3%
CC(=O)O[C@H]1C[C@@]2(C)[C@@H](C[C@@H](O)[C@H]3[C@@]4(C)CC[C@@H](O)[C@@H](C)[C@@H]4CC[C@@]32C)/C1=C(\CCC=C(C)C)C(=O)O,95.9%
CCCCNc1ccc(C(=O)OCCN(C)C)cc1,101%
CC1=C(CC(=O)O)c2cc(F)ccc2/C1=C\c1ccc([S+](C)[O-])cc1 (stereo not shown),100%
NC(=O)CC[C@H](N)C(=O)O,103%

# Block 3
# Target: Serine/threonine-protein kinase 25 (STK25, Homo sapiens, UniProt O00506)
# Sequence of UniProt O00506 (whole entry, looked up): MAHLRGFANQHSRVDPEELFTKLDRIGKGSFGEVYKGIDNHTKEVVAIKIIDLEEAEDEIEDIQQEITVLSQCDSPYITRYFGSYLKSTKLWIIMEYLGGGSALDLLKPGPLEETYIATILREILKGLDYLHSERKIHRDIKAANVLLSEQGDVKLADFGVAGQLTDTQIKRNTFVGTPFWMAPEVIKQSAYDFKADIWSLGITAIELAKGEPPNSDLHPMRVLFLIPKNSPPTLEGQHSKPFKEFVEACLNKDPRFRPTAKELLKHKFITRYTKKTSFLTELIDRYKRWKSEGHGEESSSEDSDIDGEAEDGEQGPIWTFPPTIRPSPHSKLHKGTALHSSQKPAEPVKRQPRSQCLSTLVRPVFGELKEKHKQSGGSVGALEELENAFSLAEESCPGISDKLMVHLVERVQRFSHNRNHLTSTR
# Effect on: enzyme activity
# Mode: inhibitor
# Concentration: 0.5 µM
# Relative to: control
SMILES,remaining activity [%]
COc1cc2c(Nc3ccc(Br)cc3F)ncnc2cc1OCC1CCN(C)CC1,99
c1cc(-c2cnn3cc(-c4ccc(OCCN5CCCCC5)cc4)cnc23)ccn1,91.1
N#CC(c1ccnc(NCCc2cccnc2)n1)c1nc2ccccc2s1 (stereo not shown),97.7
CC(C)(C)c1nc2c3cc[nH]c(=O)c3c3cc(F)ccc3c2[nH]1,86.9
COc1cc2c(N3CCN(C(=O)Nc4ccc(OC(C)C)cc4)CC3)ncnc2cc1OCCCN1CCCCC1,93.4
O=C(c1ccccc1)c1ccc(N2CCOCC2)cc1O,100
CCCCc1c(-c2ccc(O)cc2)[nH]c2nccnc12,91.4
O=C1c2ccccc2-c2nc3nnnn3nc21,101
CCN(CC)CCCCN1c2ccccc2Oc2ccc(Cl)cc21,92.6
Nc1nc(Nc2ccc(S(N)(=O)=O)cc2)nn1C(=S)Nc1c(F)cccc1F,8.18
CC(C)n1cnc2c(Nc3cccc(Cl)c3)nc(NCCO)nc21,92.9
O=C(O)/C=C/c1cc(Br)c(Br)c(Br)c1Br,87.2
NC(=O)c1cccc(-c2cc(Nc3ccc(OC(F)(F)F)cc3)ncn2)c1,94.5
CC(C)N(CCC(=O)c1ccc2ccccc2c1)Cc1ccccc1,94
FC(F)(F)c1ccc(/C=C/c2nc(COc3ccc(CCCCn4ccnn4)cc3)co2)cc1,91.8
C[C@@H](N)[C@H]1CC[C@H](C(=O)Nc2ccncc2)CC1,95.8
O=Nc1c(-c2c(O)[nH]c3ccccc23)[nH]c2ccccc12,87.5
Clc1ccc(Nc2nnc(Cc3ccncc3)c3ccccc23)cc1,94
N#C/C(=C(/N)SC1C=CC=CC1)c1cccc(C(O)c2ccncc2)c1 (stereo not shown),99.9
NC(=O)c1ccc(-c2nc(-c3ccc4c(c3)OCCO4)c(-c3ccccn3)[nH]2)cc1,91.3
O=c1c(-c2ccc(F)cc2)c(-c2ccncc2)[nH]n1-c1ccc(Cl)cc1,111
CNc1cc2c(Nc3cccc(Br)c3)ncnc2cn1,102
O=C1NC(=O)/C(=C/c2ccc3c(c2)OC(F)(F)O3)S1,95.7

# Block 4
# SMILES: Cc1nc(N2CC[C@@H](O)C2)ncc1-c1cc(C(F)(F)F)cc2[nH]ncc12
# Technique: competition with immobilised ligand
# Concentration: 1 µM
target,test,remaining binding
"CSNK1A1 (Homo sapiens, UniProt P48729)",cell-free assay,96%
"PIK3C2B (Homo sapiens, UniProt O00750)",cell-free assay,100%
"EPHA5 (Homo sapiens, UniProt P54756)",cell-free assay,100%
"MAPK13 (Homo sapiens, UniProt O15264)",binding,100%
"Cyclin-dependent kinase 4, with cyclin D3 (CDK4, Homo sapiens, UniProt P11802)",binding,88%
"Tyrosine-protein kinase ABL1, phosphorylated (ABL1, Homo sapiens, UniProt P00519, T315I)",binding,69%
"FGFR2 (Homo sapiens, UniProt P21802)",cell-free assay,100%
"MAPK11 (Homo sapiens, UniProt Q15759)",binding,100%
"MAP3K14 (Homo sapiens, UniProt Q99558)",binding,68%
"NEK4 (Homo sapiens, UniProt P51957)",binding,81%
"PIP5K1C (Homo sapiens, UniProt O60331)",binding,100%
"STK26 (Homo sapiens, UniProt Q9P289)",binding,59%
"Tyrosine-protein kinase JAK3, JH1 (JAK3, Homo sapiens, UniProt P52333)",binding,77%
"Tyrosine-protein kinase ABL1, non-phosphorylated (ABL1, Homo sapiens, UniProt P00519, T315I)",binding,78%
"KIT (Homo sapiens, UniProt P10721, A829P)",cell-free assay,60%
